Measurements from different studies.

CC(C)n1c(Nc2cccnc2)nc2cnc(Nc3ccc(N4CCN(C)CC4)cc3)nc21
subjects with grade 3 CPK elevation (healthy male humans; oral, dose not given, drug interaction study, all arms): 4.8%

Cc1cc(-c2nccc3c2ccn3CC(=O)Nc2ccc(-c3cnccn3)cn2)ccn1
subjects with Nausea TEAEs (human; SAD part, single 7 mg dose): 0%

CN1CCN(c2cccc3c2CCN(C(=O)/C=C/c2c(-n4cnnn4)ccc(Cl)c2F)[C@@H]3C(=O)Nc2ccc(C(=O)O)cc2)C(=O)C1
subjects with treatment-related adverse event (healthy human subjects; intravenous infusion, 25 mg/h, 2 h): 0%

CNC(=O)c1ccc(-c2cnc3ncc(Cc4ccc5ncccc5c4)n3n2)cc1F
subjects with adverse event (healthy human subjects; oral, 400 mg, Headache, all grades, all causality, together with: rifampicin 600 mg/day): 11.5%

CC(C)(C(=O)N1CCOc2c(C#N)cncc2C1)C(F)F
subjects with adverse event (measured: infections and infestations; human; oral, 20 mg once daily, 14 days, multiple ascending dose): 12.5%

C[C@H]1CN(C(=O)CC#N)[C@]12CCN(c1ncnc3[nH]ccc13)C2
subjects with Fatigue (healthy human; oral, 12 mg single): 0%

C[C@@H](Oc1ccc(S(C)(=O)=O)cc1C(=O)N1C[C@@H]2C[C@]2(c2cc(C(F)(F)F)on2)C1)C(F)(F)F
subjects with gastrointestinal disorders (human; oral, 25 mg): 50%

Cc1cc(Nc2cc3ncccc3c(N[C@@H]3C[C@H]4CC[C@@H](C3)N4CCC#N)n2)n[nH]1
subjects with contact dermatitis (healthy human; oral, 1000 mg single dose, 2 weeks): 0%

Excerpt of the above:
CC(C)(C(=O)N1CCOc2c(C#N)cncc2C1)C(F)F
subjects with adverse event (measured: infections and infestations; human; oral, 20 mg once daily, 14 days, multiple ascending dose): 12.5%
